Results collected from several papers.
Compare with care: the assays were run in different laboratories. Several values in a cell are separate wells, animals, samples, runs or records. ± marks the error that the study gave.
Neuronal acetylcholine receptor; alpha3/beta2: Neuronal acetylcholine receptor; alpha3/beta2 (Rattus norvegicus, UniProt P04757+P12390)
Oprm1: Mu-type opioid receptor (Oprm1, Rattus norvegicus, UniProt P33535)
Oprk1: Kappa-type opioid receptor (Oprk1, Mus musculus, UniProt P33534)
ACHE: Acetylcholinesterase (ACHE, Homo sapiens, UniProt P22303)
OPRK1: Kappa-type opioid receptor (OPRK1, Homo sapiens, UniProt P41145)
OPRM1: Mu-type opioid receptor (OPRM1, Homo sapiens, UniProt P35372)
Butyrylcholinesterase: Butyrylcholinesterase (Sus scrofa, UniProt A0A4X1VEU5)
Muscarinic acetylcholine receptor: Muscarinic acetylcholine receptor (Xenopus laevis, UniProt A0A8J0U760)

Amino acid sequences for entries named in this document (tags omitted). Residues count along the entry.
UniProt P04757, 26-499 limits assumed: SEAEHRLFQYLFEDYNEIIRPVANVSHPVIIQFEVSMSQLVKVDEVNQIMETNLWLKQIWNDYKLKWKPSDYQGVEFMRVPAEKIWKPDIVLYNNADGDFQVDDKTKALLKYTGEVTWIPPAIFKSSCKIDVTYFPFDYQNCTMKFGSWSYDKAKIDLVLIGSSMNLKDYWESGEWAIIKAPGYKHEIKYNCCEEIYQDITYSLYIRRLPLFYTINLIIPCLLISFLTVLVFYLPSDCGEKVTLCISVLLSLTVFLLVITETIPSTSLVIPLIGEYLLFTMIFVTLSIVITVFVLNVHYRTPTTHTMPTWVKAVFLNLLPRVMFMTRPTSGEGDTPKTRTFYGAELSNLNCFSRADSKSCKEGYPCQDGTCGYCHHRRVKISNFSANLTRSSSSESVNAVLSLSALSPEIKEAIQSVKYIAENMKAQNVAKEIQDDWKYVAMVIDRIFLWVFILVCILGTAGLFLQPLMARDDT
UniProt P12390, 25-500 limits assumed: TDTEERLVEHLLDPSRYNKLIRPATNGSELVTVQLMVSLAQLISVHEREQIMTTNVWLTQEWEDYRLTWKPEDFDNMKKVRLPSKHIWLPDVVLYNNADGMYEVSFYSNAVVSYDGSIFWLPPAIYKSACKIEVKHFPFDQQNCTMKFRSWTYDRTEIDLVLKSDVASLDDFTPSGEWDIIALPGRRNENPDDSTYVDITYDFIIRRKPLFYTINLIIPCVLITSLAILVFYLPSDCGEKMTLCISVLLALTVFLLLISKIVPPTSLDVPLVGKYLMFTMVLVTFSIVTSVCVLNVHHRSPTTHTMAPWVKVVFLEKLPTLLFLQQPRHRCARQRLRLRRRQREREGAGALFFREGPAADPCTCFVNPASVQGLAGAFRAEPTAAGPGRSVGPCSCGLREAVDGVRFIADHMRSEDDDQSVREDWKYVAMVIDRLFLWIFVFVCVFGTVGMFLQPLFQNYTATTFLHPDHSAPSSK
UniProt P33535, whole entry: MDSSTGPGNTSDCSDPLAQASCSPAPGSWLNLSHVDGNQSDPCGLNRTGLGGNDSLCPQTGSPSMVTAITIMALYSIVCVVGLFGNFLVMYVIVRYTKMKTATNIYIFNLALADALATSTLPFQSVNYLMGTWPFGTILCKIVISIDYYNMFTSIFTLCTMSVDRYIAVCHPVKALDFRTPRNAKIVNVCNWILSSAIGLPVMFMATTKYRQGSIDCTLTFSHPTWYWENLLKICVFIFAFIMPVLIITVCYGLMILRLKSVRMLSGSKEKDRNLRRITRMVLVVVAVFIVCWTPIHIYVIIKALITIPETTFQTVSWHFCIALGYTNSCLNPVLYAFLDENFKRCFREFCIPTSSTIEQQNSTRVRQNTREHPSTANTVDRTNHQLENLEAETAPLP
UniProt P33534, whole entry: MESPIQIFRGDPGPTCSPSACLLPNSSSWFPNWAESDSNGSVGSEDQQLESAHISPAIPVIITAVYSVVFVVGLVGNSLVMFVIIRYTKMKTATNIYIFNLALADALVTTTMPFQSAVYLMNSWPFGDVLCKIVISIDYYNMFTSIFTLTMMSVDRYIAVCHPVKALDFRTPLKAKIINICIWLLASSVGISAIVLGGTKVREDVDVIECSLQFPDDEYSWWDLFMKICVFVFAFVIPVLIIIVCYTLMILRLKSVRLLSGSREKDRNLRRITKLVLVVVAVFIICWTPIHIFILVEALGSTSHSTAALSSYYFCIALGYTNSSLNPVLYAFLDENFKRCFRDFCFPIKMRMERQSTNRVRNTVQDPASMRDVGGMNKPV
UniProt P22303, whole entry, looked up: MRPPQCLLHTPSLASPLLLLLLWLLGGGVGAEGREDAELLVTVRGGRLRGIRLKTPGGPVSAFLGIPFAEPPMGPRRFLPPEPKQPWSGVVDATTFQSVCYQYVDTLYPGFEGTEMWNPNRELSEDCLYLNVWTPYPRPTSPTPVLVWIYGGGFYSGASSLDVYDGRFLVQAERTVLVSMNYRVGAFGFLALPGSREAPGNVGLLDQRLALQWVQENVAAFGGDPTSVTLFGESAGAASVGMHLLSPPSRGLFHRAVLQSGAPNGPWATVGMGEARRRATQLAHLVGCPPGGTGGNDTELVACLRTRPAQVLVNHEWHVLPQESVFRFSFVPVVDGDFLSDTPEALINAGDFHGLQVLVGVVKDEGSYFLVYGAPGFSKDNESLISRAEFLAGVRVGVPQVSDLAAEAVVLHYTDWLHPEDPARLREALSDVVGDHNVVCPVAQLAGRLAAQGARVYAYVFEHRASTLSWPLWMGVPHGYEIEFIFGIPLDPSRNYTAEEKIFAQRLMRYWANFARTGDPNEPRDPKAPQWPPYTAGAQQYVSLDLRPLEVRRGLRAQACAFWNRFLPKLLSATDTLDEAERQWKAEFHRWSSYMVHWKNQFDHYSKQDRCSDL
UniProt P22303, 32-614 limits assumed: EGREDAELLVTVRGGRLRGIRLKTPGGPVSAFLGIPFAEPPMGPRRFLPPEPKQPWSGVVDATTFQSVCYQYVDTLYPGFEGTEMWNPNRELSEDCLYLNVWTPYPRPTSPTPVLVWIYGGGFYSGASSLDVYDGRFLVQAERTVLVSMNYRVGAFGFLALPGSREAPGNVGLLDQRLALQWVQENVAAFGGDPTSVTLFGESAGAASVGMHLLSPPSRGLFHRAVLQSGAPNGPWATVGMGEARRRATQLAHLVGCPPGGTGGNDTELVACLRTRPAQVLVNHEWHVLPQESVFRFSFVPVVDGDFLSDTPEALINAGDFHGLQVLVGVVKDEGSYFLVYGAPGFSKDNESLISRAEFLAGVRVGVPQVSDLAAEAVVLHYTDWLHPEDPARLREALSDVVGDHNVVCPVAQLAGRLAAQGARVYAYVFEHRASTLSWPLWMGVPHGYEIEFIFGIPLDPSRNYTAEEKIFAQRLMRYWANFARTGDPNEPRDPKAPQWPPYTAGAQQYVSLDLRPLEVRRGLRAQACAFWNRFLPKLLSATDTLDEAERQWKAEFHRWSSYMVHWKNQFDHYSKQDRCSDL
UniProt P41145, whole entry: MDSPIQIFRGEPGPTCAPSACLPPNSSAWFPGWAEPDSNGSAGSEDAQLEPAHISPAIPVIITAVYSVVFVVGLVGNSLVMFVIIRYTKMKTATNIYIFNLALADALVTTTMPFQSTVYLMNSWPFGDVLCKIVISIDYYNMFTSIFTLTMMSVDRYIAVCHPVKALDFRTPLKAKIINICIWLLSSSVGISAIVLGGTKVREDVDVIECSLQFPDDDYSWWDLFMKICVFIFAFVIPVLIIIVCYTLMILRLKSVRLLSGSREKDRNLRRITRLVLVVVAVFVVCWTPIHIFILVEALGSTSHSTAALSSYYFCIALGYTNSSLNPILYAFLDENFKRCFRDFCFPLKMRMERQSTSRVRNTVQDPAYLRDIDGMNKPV
UniProt P35372, whole entry: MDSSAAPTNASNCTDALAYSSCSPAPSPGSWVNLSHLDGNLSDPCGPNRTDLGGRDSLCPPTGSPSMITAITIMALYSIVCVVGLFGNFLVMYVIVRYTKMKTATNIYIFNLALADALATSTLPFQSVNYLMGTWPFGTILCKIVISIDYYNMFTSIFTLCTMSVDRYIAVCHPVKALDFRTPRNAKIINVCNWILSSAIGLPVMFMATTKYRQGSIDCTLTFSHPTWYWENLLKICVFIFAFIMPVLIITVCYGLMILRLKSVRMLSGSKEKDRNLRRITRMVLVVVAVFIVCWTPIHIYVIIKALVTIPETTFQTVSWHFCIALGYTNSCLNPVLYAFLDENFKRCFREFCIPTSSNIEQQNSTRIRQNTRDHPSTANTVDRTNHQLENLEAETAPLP
UniProt A0A8J0U760, 1-470: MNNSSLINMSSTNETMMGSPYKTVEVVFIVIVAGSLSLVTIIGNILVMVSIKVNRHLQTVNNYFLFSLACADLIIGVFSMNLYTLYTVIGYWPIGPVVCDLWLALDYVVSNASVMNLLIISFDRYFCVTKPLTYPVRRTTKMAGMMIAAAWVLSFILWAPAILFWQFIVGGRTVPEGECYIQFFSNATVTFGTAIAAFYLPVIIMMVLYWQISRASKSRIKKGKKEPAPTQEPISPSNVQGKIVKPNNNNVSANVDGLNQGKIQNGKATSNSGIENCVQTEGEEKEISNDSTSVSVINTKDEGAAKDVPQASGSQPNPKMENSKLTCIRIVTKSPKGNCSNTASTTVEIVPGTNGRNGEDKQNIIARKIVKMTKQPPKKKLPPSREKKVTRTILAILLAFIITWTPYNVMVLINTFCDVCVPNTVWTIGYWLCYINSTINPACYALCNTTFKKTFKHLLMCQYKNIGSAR
UniProt P23975, whole entry: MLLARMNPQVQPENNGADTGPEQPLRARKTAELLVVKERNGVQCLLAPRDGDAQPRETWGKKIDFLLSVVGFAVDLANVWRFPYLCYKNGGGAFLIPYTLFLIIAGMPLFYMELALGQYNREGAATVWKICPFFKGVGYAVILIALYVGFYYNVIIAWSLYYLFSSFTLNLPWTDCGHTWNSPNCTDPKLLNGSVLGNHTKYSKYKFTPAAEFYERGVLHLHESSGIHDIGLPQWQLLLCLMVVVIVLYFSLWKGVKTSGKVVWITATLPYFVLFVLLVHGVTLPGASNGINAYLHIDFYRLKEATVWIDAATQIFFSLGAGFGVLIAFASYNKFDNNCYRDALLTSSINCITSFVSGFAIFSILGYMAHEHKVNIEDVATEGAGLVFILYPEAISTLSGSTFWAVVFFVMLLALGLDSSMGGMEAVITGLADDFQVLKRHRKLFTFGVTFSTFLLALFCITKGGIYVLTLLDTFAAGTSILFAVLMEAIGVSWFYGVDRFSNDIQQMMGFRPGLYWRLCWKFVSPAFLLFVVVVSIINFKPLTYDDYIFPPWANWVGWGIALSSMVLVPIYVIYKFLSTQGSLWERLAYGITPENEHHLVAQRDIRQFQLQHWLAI
UniProt P34969, whole entry: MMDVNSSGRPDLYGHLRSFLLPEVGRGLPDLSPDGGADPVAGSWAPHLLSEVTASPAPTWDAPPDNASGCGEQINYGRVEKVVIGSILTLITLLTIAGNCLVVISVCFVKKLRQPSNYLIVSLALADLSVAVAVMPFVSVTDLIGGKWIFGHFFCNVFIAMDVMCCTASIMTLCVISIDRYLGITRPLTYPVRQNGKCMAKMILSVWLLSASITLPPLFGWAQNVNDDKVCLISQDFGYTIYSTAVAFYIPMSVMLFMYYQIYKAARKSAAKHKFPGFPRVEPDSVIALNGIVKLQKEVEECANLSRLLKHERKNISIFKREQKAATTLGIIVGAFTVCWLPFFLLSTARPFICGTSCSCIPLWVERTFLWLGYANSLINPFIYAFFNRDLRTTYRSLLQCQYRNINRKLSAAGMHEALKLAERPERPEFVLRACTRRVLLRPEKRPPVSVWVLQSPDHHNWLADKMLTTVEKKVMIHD
UniProt Q869C3, whole entry, looked up: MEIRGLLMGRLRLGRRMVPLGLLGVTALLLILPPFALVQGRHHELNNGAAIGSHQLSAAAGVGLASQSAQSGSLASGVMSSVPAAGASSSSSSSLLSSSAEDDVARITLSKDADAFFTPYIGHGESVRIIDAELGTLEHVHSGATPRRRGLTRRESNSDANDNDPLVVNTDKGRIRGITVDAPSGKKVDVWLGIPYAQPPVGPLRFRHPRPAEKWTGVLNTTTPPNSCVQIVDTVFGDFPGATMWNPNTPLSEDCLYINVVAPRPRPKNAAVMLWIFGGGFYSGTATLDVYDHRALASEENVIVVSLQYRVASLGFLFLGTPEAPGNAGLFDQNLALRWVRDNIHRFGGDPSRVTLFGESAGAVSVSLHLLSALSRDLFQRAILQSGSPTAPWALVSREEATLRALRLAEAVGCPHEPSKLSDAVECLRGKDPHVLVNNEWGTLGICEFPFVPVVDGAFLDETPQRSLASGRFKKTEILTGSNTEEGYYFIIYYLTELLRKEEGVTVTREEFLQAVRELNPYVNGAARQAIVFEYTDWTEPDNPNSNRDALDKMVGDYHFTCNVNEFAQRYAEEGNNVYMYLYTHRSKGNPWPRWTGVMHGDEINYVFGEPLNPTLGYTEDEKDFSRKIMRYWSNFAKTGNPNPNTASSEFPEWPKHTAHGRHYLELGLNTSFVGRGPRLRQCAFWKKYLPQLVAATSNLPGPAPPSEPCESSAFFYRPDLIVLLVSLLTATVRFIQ
UniProt P17405, 47-631 limits assumed: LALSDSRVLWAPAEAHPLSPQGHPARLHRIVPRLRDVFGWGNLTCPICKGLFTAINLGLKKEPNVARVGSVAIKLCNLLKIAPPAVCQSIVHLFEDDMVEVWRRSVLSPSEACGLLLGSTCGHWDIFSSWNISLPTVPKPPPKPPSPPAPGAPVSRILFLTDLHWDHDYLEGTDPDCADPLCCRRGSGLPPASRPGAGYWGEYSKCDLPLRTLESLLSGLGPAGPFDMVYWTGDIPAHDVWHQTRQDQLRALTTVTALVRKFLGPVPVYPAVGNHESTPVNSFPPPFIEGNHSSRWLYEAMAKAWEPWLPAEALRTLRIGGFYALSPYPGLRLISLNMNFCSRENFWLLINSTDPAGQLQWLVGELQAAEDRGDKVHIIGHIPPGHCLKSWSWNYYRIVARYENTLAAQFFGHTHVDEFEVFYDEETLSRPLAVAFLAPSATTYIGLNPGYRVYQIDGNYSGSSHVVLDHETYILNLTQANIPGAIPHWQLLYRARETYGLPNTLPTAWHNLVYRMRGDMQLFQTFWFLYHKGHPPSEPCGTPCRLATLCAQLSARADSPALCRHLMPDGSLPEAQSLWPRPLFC

The Vmax of `CCOc1ccc2c(c1)Oc1cc(OCC)ccc1C21OC(=O)c2ccccc21` is reported as 14.8 ± 4.89 RFU/s (cyp6p3 (Anopheles gambiae, UniProt Q8T632); substrate; dual plasmid expression).
With `CC(C)[C@H]1CC[C@@H](N2CCC(n3c(CO)cc4ccccc43)CC2)CC1` the inhibition was 65% (SLC6A2 (Homo sapiens, UniProt P23975); radioligand binding; 10 µM).
`O[As](O)O` gave a Km of 219 µM (Probable inositol transporter 2 (INT2, Arabidopsis thaliana, UniProt Q9C757); arsenic uptake, substrate, ICP-MS; yeast expressing transporter; 30 min, 30 °C, added: 2 µg/mL myo-inositol).
The selectivity ratio of `CC(C)C[C@@H]1NC(=O)[C@H](CCCNC(=N)N)NC(=O)[C@@H]2CCCN2C(=O)[C@H](Cc2c[nH]cn2)NC(=O)[C@H](CC(N)=O)NC(=O)[C@H](C(C)C)NC(=O)[C@H](CO)NC(=O)[C@@H]2CSSC[C@H](NC(=O)CN)C(=O)N[C@@H](CSSC[C@@H](C(N)=O)NC1=O)C(=O)N[C@@H](CO)C(=O)N[C@@H](Cc1c[nH]cn1)C(=O)N1CCC[C@H]1C(=O)N[C@@H](C)C(=O)N2` is reported as 0.1 (Neuronal acetylcholine receptor; alpha3/beta2; baseline: IC50 α6/α3β2β3 over α3β2).
`O=c1[nH]c(CC2CCCCC2)cc(O)c1-c1ccccc1` gave a ΔTm of 1.5 °C (inhA (Mycobacterium tuberculosis, UniProt P9WGR1); thermal shift).
`CO[C@]12CC[C@@]3(C[C@@H]1[C@](C)(O)c1ccc(C)cc1)[C@H]1Cc4ccc(O)c5c4[C@@]3(CCN1CC1CC1)[C@H]2O5` has a stimulation of 50 ± 2% (Oprm1; G protein activation, agonist; 10 µM; baseline: DAMGO).
`CN(C(=O)Cc1cccc2occc12)[C@H]1CC[C@@]2(CCCO2)C[C@@H]1N1CCCC1` gave a bias factor of 3.2 (Oprk1; agonist; mouse receptor; baseline: larger over smaller RAi, vs dynorphin A).
Under binding, `Cc1csc(CCCNCc2cc(=O)c3cc(F)ccc3[nH]2)n1` is recorded as “inactive” (DRD3 (Homo sapiens, UniProt P35462); 10 µM).
For `CN(C)Cc1cccc(N)c1O`, the inhibition was 43% (ACHE; enzyme activity, inhibitor; 1000 µM).
`CCN1CCN(Cc2ccc(NC(=O)c3ccc(C)c(/C=C/c4cnc5[nH]ccc5c4OC)c3)cc2C(F)(F)F)CC1`: “log2 fold change” 0.135 (NDE1-PDGFRB fusion; kinase-CDC37 interaction, cell-based kinome screen; 5 µM; baseline: vehicle).
For `CO[C@]12CC[C@@]3(C[C@@H]1[C@](C)(O)c1cccc(C)c1)[C@H]1Cc4ccc(O)c5c4[C@@]3(CCN1CC1CC1)[C@H]2O5`, the stimulation was 33 ± 5% (Oprm1; G protein activation, agonist; 10 µM; baseline: DAMGO).
For `CCCN1CCN(c2ccc3c(c2)C2CC3CCN2C(=O)OCc2ccccc2)CC1` (stereo not drawn), the Ki was 766 nM (HTR7 (Homo sapiens, UniProt P34969); binding, radioligand binding).
`CCN(CC)C(=O)Oc1ccc(C(=O)Nc2cccc3cc[nH]c23)cc1` gave a current response of 101 ± 1.9% (Glutamate receptor 2 (Homo sapiens, UniProt P42262); modulator, two-electrode voltage clamp; Xenopus oocytes; 20 µM, added: 100 µM glutamate; baseline: agonist alone).
With `CO[C@]12CC[C@@]3(C[C@@H]1[C@](C)(O)c1ccccc1C)[C@H]1Cc4ccc(O)c5c4[C@@]3(CCN1CC1CC1)[C@H]2O5` the stimulation was 17 ± 4% (Oprm1; G protein activation, agonist; 10 µM; baseline: DAMGO).
`CCCCOP(=O)(OCCCC)OCCCC`: “concentration at maximal activation” 33 µM (PPARG (Homo sapiens, UniProt P37231); reporter gene, agonist, PPARγ1 reporter; HEK293).
The delta Tm of `cysteamine S-phosphate` is reported as 2.19 °C (uncharacterized protein SAR11_0864 (Pelagibacter ubique, UniProt Q4FMA9); differential scanning fluorimetry; Candidatus Pelagibacter ubique; single replicate).
`CNC(=O)Oc1cccc2ccccc12` gave a k2 of 1.84 ± 0.37 min⁻¹ (Ace (Anopheles gambiae, UniProt Q869C3); enzyme inhibition, inhibitor).
With `Cc1ncc(-c2cc(Cl)ccc2F)cc1-n1c(=O)n(CC(N)=O)c2ccccc21` the inhibition was 13.5% (OPRK1; binding, radioligand binding; 10 µM).
Under antagonist activity, `CO[C@]12CC[C@@]3(C[C@@H]1[C@@](C)(O)C(C)(C)C)[C@H]1Cc4c(Cl)cc(O)c5c4[C@@]3(CCN1CC1CC1)[C@H]2O5` is recorded as “inhibited” (OPRM1; antagonist; CHO; concentration not given).
The inhibition of `CSCC[C@@H]1NC(=O)[C@H](CC(C)C)NC(=O)[C@H](CCCNC(=N)N)NC(=O)[C@H](CO)NC(=O)[C@@H]2CSSC[C@@H]3NC(=O)[C@H](CO)NC(=O)CNC(=O)[C@H]([C@@H](C)O)NC(=O)[C@H](CSSC[C@H](N)C(=O)N[C@@H](CCCCN)C(=O)NCC(=O)N[C@@H](CCCCN)C(=O)NCC(=O)N[C@@H](C)C(=O)N[C@@H](CCCCN)C(=O)N2)NC(=O)[C@H](CSSC[C@@H](C(N)=O)NC(=O)[C@H](CCCCN)NC(=O)CNC(=O)[C@H](CO)NC(=O)[C@H](CCCNC(=N)N)NC3=O)NC(=O)[C@H](CC(=O)O)NC(=O)[C@H](Cc2ccc(O)cc2)NC1=O` is reported as 27% (Voltage-dependent P/Q-type calcium channel subunit alpha-1A (Homo sapiens, UniProt O00555); antagonist; HEK293; 10 µM).
The Emax of `CN(C(=O)Cc1ccc(Cl)c(Cl)c1)C1CCC2(CCCO2)CC1N1CCCC1` (stereo not drawn) is reported as 102 ± 2.1% (OPRK1; agonist; baseline: U-50488 10 µM).
`CCC(=O)SCC[N+](C)(C)C` gave a Km of 250 ± 10 µM (Butyrylcholinesterase; substrate; pH 8.0, 22 °C).
`CO[C@]12CC[C@@]3(C[C@@H]1[C@](C)(O)c1ccc(Cl)s1)[C@H]1Cc4ccc(O)c5c4[C@@]3(CCN1CC1CC1)[C@H]2O5` gave a stimulation of 45 ± 3% (Oprm1; G protein activation, agonist; 10 µM; baseline: DAMGO).
`O=C(O)c1ccccc1[As](=O)(O)O` gave a maximal inhibition of 104% (SMPD1 (Homo sapiens, UniProt P17405); enzyme activity; pH 6.5, added: sphingomyelin substrate).
For `CCN(CC)Cc1ccccc1O`, the inhibition was 0% (ACHE; enzyme activity, inhibitor; 1000 µM).
`CCCc1nc2c(NP(=O)(OCC)OCC)nc3ccccc3c2s1`: EC50 “inactive” (TLR7 (Homo sapiens, UniProt Q9NYK1); reporter gene, agonist, measured: NF-κB; HEK-Blue TLR7 cells; inactive means above 100 µM).
`methoxymethyl salvinorin B`: “log intrinsic relative activity” 0.47 ± 0.11 (OPRK1; receptor internalization, agonist; concentration not given; baseline: dynorphin A).
`CCCC[C@@H]1NC(=O)[C@H](CCC(=O)O)NC(=O)[C@@H]2CCCN2C(=O)[C@H](Cc2c[nH]cn2)NC(=O)[C@H](CC(N)=O)NC(=O)[C@H](C(C)C)NC(=O)[C@H](CO)NC(=O)[C@@H]2CSSC[C@H](NC(=O)CN)C(=O)N[C@@H](CSSC[C@@H](C(N)=O)NC1=O)C(=O)N[C@@H](CO)C(=O)N[C@@H](Cc1c[nH]cn1)C(=O)N1CCC[C@H]1C(=O)N[C@@H](C)C(=O)N2` has a selectivity ratio of 0.6 (Neuronal acetylcholine receptor; alpha3/beta2; baseline: IC50 α6/α3β2β3 over α3β2).
Under “substrate inhibition constant (Kss)”, `CCCC(=O)SCC[N+](C)(C)C` is recorded as 287 ± 35 mM (Butyrylcholinesterase; substrate).
`C=CCN1CC[C@@]23c4c5ccc(O)c4C[C@@H]2[C@H](O)C=C[C@@H]3[C@@H]1C5` gave an antagonist activity of ~55% (OPRM1; DAMGO response, β-arrestin2 recruitment; concentration not given, added: DAMGO; baseline: naloxone).
`O=C1CCCN1CC#CCN1CCCC1` has a Hill coefficient of 0.67 (Muscarinic acetylcholine receptor; binding, [3H]QNB competition; Xenopus laevis heart homogenate).
The charge transfer of `COc1ccc(OC[C@H]2c3cccn3CC(=O)N2Cc2cccc(F)c2)cc1` is reported as -12 ± 11 nA·ms (Glutamate receptor ionotropic, NMDA 2B, with GluN1 (Grin2b, Rattus norvegicus, UniProt Q00960); ion current, whole-cell patch clamp; HEK293T cells, transfected; 10 µM, added: 1 mM glutamate for 10 ms plus 100 µM glycine).
With `CN(C(=O)Cc1ccc(Cl)c(Cl)c1)[C@H](CN1CCCC1)c1ccccc1` the bias factor was 10 (Oprk1; agonist; mouse receptor; baseline: larger over smaller RAi, vs dynorphin A).
`CC(C)C[C@@H]1NC(=O)[C@H](CCC(=O)O)NC(=O)[C@@H]2CCCN2C(=O)[C@H](Cc2c[nH]cn2)NC(=O)[C@H](CCCCC(=O)O)NC(=O)[C@H](CC(C)C)NC(=O)[C@H](Cc2c[nH]cn2)NC(=O)[C@@H]2CSSC[C@H](NC(=O)CN)C(=O)N[C@@H](CSSC[C@@H](C(N)=O)NC1=O)C(=O)N[C@@H](CO)C(=O)N[C@@H](Cc1c[nH]cn1)C(=O)N1CCC[C@H]1C(=O)N[C@@H](C)C(=O)N2` has a selectivity ratio of ~59 and 59 (Neuronal acetylcholine receptor; alpha3/beta2; baseline: IC50 α6/α3β2β3 over α3β2).
`CO[C@]12CC[C@@]3(C[C@@H]1[C@](C)(O)c1cc(C)cc(C)c1)[C@H]1Cc4ccc(O)c5c4[C@@]3(CCN1CC1CC1)[C@H]2O5` has a stimulation of 50 ± 6% (OPRK1; G-protein activation, agonist; 10 µM; baseline: U-69593).
`carbachol` has a Hill coefficient of 0.51 (Muscarinic acetylcholine receptor; binding, [3H]QNB competition; Xenopus laevis heart homogenate).
With `U-69593` the Δlog(τ/KA) was 0 (OPRK1; β-arrestin2 recruitment, agonist, high content imaging; U2OS expressing human KOR; unit not given; baseline: reference agonist).
`CO[C@]12CC[C@@]3(C[C@@H]1[C@](C)(O)c1ccc(Cl)cc1)[C@H]1Cc4ccc(O)c5c4[C@@]3(CCN1CC1CC1)[C@H]2O5` has a stimulation of 16 ± 4% (Oprm1; G protein activation, agonist; 10 µM; baseline: DAMGO).
`CC(=O)SCC[N+](C)(C)C`: “substrate inhibition constant (Kss)” 6.4 ± 1.1 mM (ACHE; substrate).
`ethoxymethyl salvinorin B` gave a bias factor of 1.2 (OPRK1; agonist; human receptor; baseline: larger over smaller RAi, vs dynorphin A).
`CC#C/C(=N\OC[C@H]1COCCN1)c1ccc2ncnc(Nc3ccc(OCc4cccc(F)c4)c(Cl)c3)c2c1` has an inhibition of 18.7% (MAP3K5 (Homo sapiens, UniProt Q99683); kinase activity; 10 µM).
For `C[As+](C)(C)CCO`, the Km was 523 ± 70 µM (betP (Corynebacterium glutamicum, UniProt P54582, G153D); transport current, substrate, SSM electrophysiology; Corynebacterium glutamicum, proteoliposomes; pH 7.5, 22 °C, added: 500 mM NaCl).

Some of these lines once more:
`O[As](O)O` gave a Km of 219 µM (Probable inositol transporter 2 (INT2, Arabidopsis thaliana, UniProt Q9C757); arsenic uptake, substrate, ICP-MS; yeast expressing transporter; 30 min, 30 °C, added: 2 µg/mL myo-inositol).
The selectivity ratio of `CC(C)C[C@@H]1NC(=O)[C@H](CCCNC(=N)N)NC(=O)[C@@H]2CCCN2C(=O)[C@H](Cc2c[nH]cn2)NC(=O)[C@H](CC(N)=O)NC(=O)[C@H](C(C)C)NC(=O)[C@H](CO)NC(=O)[C@@H]2CSSC[C@H](NC(=O)CN)C(=O)N[C@@H](CSSC[C@@H](C(N)=O)NC1=O)C(=O)N[C@@H](CO)C(=O)N[C@@H](Cc1c[nH]cn1)C(=O)N1CCC[C@H]1C(=O)N[C@@H](C)C(=O)N2` is reported as 0.1 (Neuronal acetylcholine receptor; alpha3/beta2; baseline: IC50 α6/α3β2β3 over α3β2).
`O=c1[nH]c(CC2CCCCC2)cc(O)c1-c1ccccc1` gave a ΔTm of 1.5 °C (inhA (Mycobacterium tuberculosis, UniProt P9WGR1); thermal shift).
`CO[C@]12CC[C@@]3(C[C@@H]1[C@](C)(O)c1ccc(C)cc1)[C@H]1Cc4ccc(O)c5c4[C@@]3(CCN1CC1CC1)[C@H]2O5` has a stimulation of 50 ± 2% (Oprm1; G protein activation, agonist; 10 µM; baseline: DAMGO).
`CN(C(=O)Cc1cccc2occc12)[C@H]1CC[C@@]2(CCCO2)C[C@@H]1N1CCCC1` gave a bias factor of 3.2 (Oprk1; agonist; mouse receptor; baseline: larger over smaller RAi, vs dynorphin A).
Under binding, `Cc1csc(CCCNCc2cc(=O)c3cc(F)ccc3[nH]2)n1` is recorded as “inactive” (DRD3 (Homo sapiens, UniProt P35462); 10 µM).
For `CN(C)Cc1cccc(N)c1O`, the inhibition was 43% (ACHE; enzyme activity, inhibitor; 1000 µM).
